Results pooled from the literature.
Parts stem from different laboratories: compare values within a part only.

Sample 1
Target: Histone acetyltransferase KAT6A, winged helix 2, GST fusion (KAT6A, Homo sapiens, UniProt Q92794, residues 85-181)
Technique: protein binding microarray
Form: double-stranded DNA, one strand shown
Sample: in vitro
Concentration: not given
Notes: 8-mer, flanks averaged, mean of 2 arrays, mostly near background
Baseline: not given
Reading: higher = stronger binding
Residues (chain): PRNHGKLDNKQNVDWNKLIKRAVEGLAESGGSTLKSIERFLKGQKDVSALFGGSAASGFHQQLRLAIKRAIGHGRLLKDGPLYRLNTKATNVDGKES
| Strand | E-score |
| --- | --- |
| CTCTTACC | 0.00802 |
| AAAGGTTA | -0.0682 |
| CAAGAACA | 0.0675 |
| CAGGGTCG | 0.0904 |

Sample 2
Target: Interferon regulatory factor 5, full length, phosphomimetic (IRF5, Homo sapiens, UniProt Q13568-2, residues 1-514, K96S/S451D/S453D/S456D/S462D)
Technique: protein-binding microarray
Form: double-stranded DNA, one strand shown
Sample: in vitro
Concentration: 250 nM
Notes: 60-bp whole probe
Together with: salmon DNA 0.4 mg/ml
Baseline: random background probes
Reading: higher = stronger binding
| Strand | log fluorescence [z-score] |
| --- | --- |
| GCCTAGCACGACGGACTGCTTTTGCTGACGTGCTAGGTCTTGATTCGCTTGACGCTGCTG | -0.105 |
| GCCTAGCACGTCGGTATCGGGTATCGGGACGTGCTAGTCTTGATTCGCTTGACGCTGCTG | 4.92 |
| GCCTAGCACTTCGGACTGGGGACTGGGTTAGTGCTAGTCTTGATTCGCTTGACGCTGCTG | -0.22 |
| GCCTAGCACGACGGACTGGGGTATCGTGACGTGCTAGTCTTGATTCGCTTGACGCTGCTG | -0.451 |

Sample 3
Target: Ras GTPase-activating protein-binding protein 1, full length (G3BP1, Homo sapiens, UniProt Q13283)
Chain of UniProt Q13283 (whole entry, looked up): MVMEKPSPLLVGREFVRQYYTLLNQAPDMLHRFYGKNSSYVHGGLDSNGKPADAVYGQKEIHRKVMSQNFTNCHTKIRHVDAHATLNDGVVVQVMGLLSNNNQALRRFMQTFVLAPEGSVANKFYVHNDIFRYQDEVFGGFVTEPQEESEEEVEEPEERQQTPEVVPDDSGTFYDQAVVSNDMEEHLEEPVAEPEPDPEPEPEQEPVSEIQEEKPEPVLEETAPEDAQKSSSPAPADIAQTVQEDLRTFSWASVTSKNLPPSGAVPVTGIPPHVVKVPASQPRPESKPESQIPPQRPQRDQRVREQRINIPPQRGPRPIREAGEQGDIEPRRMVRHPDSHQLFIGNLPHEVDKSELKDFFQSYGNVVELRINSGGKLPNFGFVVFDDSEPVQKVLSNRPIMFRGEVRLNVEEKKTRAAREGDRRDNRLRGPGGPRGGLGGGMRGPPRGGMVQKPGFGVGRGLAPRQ
Technique: RNA Bind-n-Seq
Form: RNA
Sample: in vitro
Concentration: 200 nM
Notes: whole 134-nt RNA, ends assumed
Together with: 150 mM KCl
Baseline: input library
Reading: higher = stronger binding
| Strand | log2 enrichment |
| --- | --- |
| GGGAGUUCUACAGUCCGACGAUCUAGUAACAGGGGUGAAGAUGCCUUUUGUGAUCCUGAAGAUGAAUGGGAACCCGACAUUACAGAUGCACCAGUUUCUUCACUUUCUAGAAGUGGAAUUCUCGGGUGUCAAGG | -1.6 |
| GGGAGUUCUACAGUCCGACGAUCCAAGUCCUGUGCUACACAUCGUAUGUACCGAAUCGGUUUGGUUUUUUUGGUUUGGAAAGUAUUAUGUUACGCCGUUCGGAUCUGCACUUCUGGAAUUCUCGGGUGUCAAGG | -1 |
| GGGAGUUCUACAGUCCGACGAUCCACAGACAACACGCACCCACACAGACACAGAGGGAAGGGGUUGGGAUGGGGACAGGGUGCACAGCAGAGCGGGGUAGGACCCCAGCCCCUUGGAAUUCUCGGGUGUCAAGG | 1.86 |

Mixed results
| Molecule | target | assay | test system | conditions | scale | measurement | value |
| --- | --- | --- | --- | --- | --- | --- | --- |
| PhoQ, residues 284 288 289 292 302 303 SMYGEC | PhoP, residues 12 14 15 18 19 TTLRV (Escherichia coli, UniProt P23836) | Sort-seq, measured: YFP reporter | E. coli | PhoQ-PhoP variant library, together with: 10 µM Mg2+ | baseline: high Mg2+ state, higher = stronger signaling | fold induction | 1.28 |

Excerpt of the above (sample 2):
| Strand | log fluorescence [z-score] |
| --- | --- |
| GCCTAGCACGACGGACTGGGGTATCGTGACGTGCTAGTCTTGATTCGCTTGACGCTGCTG | -0.451 |
| GCCTAGCACGACGGACTGCTTTTGCTGACGTGCTAGGTCTTGATTCGCTTGACGCTGCTG | -0.105 |
